Experimental data pooled from the literature.
Numbered parts are unrelated; each lists some results of a single study.

Study 1
Target: Centromere-binding protein 1, full length, N-terminal tag (CBF1, Saccharomyces cerevisiae, UniProt P17106, residues 1-351)
Chain of UniProt P17106 (whole entry, looked up): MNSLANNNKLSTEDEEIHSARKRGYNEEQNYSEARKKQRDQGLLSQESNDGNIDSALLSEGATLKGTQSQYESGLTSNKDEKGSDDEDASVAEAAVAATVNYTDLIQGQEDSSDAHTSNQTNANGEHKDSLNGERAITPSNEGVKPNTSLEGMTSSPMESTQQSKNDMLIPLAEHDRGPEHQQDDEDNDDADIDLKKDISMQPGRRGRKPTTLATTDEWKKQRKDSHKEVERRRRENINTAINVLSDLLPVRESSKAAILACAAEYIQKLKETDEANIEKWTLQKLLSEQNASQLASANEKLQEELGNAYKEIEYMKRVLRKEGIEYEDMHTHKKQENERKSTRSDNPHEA
Method: protein-binding microarray
Molecule type: double-stranded DNA, one strand shown
Medium: in vitro
Concentration: 0.8 µM
Setting: whole 60-bp probe, no competitor
Reading: higher = stronger binding
All sequences stand within: … GTCTTGATTCGCTTGACGCTGCTG
Oligonucleotide	fluorescence intensity [a.u.]
GAACTTTTAGTTAATCAGGTGTGAGGTGGAATGTAG	982
CTATCTAATGCATCAGCTGTTATGCGCACTACTTTC	626
GAACACGGCCACAGTGGCACGTGACATTTACTCTAG	20700
GAATGAACAATTGACCACGCTACAACGGAATTTTAG	571
GAACTTTACCGTTTGCGTGCTGATTTATGATGTTAG	595
CTAAAAAACAGTCATCAGGTGTAATAGAAGCTATTC	653
CTAACCTTTTTCCATCAGCTGGCAGGGAACGGATTC	599
TGTACGAAGCTATGTTACGTGTATATAGTAGTTAGG	532
CCTAACTACTATACCCACGTGCGATAGCTTCGTACA	3620
CTAGCATTTCAATGTCACATAATACGAACCATTTTC	525
GAAAAGCCTTTTCTCAACGTGACTGGAGTAACGTAG	1360
GAAATATACATTCCGGGTCACATGTGCCCAAATTAG	11000
TGTACGAAGCTATGGCATCAGGATATAGTAGTTAGG	531
CTATTCTCAAACCTTCACCTGGTGGTGCGTATCTTC	567
GAATTTTAATTTCATGCCGTGATTCTTTAACTTTAG	571
GAACCACTAGGGCTGGTCGTGGGGTACGTGGGGTAG	495
CTACAGATGCCATATCCCGTGCCATATATACTATTC	950
GAATAACAAACGTCGCACGCGTTTGAAAGTTATTAG	563
GAAGTATGGACTCTTTGGGTGATGAAAAGTAATTAG	532
CTAAGGGTGTTTCAGAAGGTGACTAAAATATCGTTC	623
GAATGTTTCGTCCACCTGACCGAGCCGGCAGCTTAG	2470
GAAACAGTAACTTATCATCAGGACTGTTGGAATTAG	521
CTAATAGCCAGACGTGATTCCCCTAAACTCAGGTTC	548
GAAATATGCCTATGTTTCGTGCTTTTGCCGATTTAG	475
GAAAGCTGCTGTGGTGGTGTTTTGTTAAACGTGTAG	535

Study 2
Target: Interferon regulatory factor 7, full length, phosphomimetic (IRF7, Homo sapiens, UniProt Q92985, residues 1-503, S101K/S471D/S472D/S475D/S476D/S477D/S483D/S484D/S487D)
Chain of UniProt Q92985 (whole entry, unmodified, looked up): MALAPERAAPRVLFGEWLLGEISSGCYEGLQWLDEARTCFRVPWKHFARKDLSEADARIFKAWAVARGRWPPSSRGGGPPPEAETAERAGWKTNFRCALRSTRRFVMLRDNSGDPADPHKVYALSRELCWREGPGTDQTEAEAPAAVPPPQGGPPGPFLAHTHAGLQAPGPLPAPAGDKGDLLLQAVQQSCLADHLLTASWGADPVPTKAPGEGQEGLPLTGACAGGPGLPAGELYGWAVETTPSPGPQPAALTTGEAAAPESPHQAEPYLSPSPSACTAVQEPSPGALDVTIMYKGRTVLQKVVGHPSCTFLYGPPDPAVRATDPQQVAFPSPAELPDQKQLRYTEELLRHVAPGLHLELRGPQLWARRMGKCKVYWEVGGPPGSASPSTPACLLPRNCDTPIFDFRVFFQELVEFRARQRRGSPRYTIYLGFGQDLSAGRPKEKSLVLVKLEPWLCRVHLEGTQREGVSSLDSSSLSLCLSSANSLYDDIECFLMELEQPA
Method: protein-binding microarray
Molecule type: double-stranded DNA, one strand shown
Medium: in vitro
Concentration: 250 nM
Setting: 60-bp whole probe
Together with: salmon DNA 0.4 mg/ml
Relative to: random background probes
Reading: higher = stronger binding
All sequences stand within: GCCTAGCAC … GTCTTGATTCGCTTGACGCTGCTG
Oligonucleotide	log fluorescence [z-score]
TTAGATTTCTGTTCCGATTAGTGCTAG	1.44
GACGGCATCGACTATCGGGACGTGCTA	-1
TTAGATTACAGTTCCGATTAGTGCTAG	1.26
TTAGGTCTCCGTTTCCTTTAGTGCTAG	2.55
TTCGGACTGGGGTTTCGGTTAGTGCTA	4.99
TTAGGTATCCTTCTCCTTGAGTGCTAG	0.585
TTAGGTATAGGGACTGGGTTAGTGCTA	0.0414
TTAGGTGTCGGGACTGGGTTAGTGCTA	-0.856
GACGGAATCGGTTTCGGGACGTGCTAG	6.08
GACGCTTTCGGACTGGGGACGTGCTAG	0.796
GTAGGTATCGGGACTGGGTTAGTGCTA	-0.469
GACGAACTGGAGTTTCGAGACGTGCTA	2.77
TCACATGTTGCTCTCCGACTGTGCTAG	0.0459
GACGGCCTGGACTATCGGGACGTGCTA	-0.917
GTAGAACTGAGACTGGATTAGTGCTAG	-0.444
TTTTTTCTTTTATTAGTGACGTGCTAG	2.85
TTAGGTTTCCTCCTCCTTTAGTGCTAG	1.04
TCAGTTTGCCCTATTTAACTGTGCTAG	1.89
GACGGTCTGCTTATCCTGACGTGCTAG	-0.441
GACGGTTTCCCTTTCCTGACGTGCTAG	5.83
ATAGAACTGAGTCTCGATTAGTGCTAG	1.33
TTAGAACTGAGGACTGGATTAGTGCTA	-0.372
GACGGTTTCCTTATCCTGGCGTGCTAG	3.11
GACGATTTCGCGACTGGAGACGTGCTA	0.395

Study 3
Target: RNA binding protein fox-1 homolog 2, RRM domain, GST-SBP tag (RBFOX2, Homo sapiens, UniProt O43251-10, residues 100-194)
Method: RNA Bind-n-Seq
Molecule type: RNA
Medium: in vitro
Concentration: 365 nM
Setting: natural RNA segment, single round, ends assumed
Relative to: no-protein control
Reading: higher = stronger binding
All sequences stand within: GGGAGUUCUACAGUCCGACGAUC … UGGAAUUCUCGGGUGCCAA
Construct (chain): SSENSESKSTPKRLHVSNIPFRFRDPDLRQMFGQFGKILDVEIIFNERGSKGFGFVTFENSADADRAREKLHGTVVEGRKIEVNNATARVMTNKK
Oligonucleotide	RBNS enrichment (R)
GUGCAGAGGUGGUUGCUGCUUCCAGUUUCCCUUCAGACUUAGCUGUGUGAACCCCACUCCUAUCCUUUGGCCUUAGUUUUCCCAUCUGUAAAACUCAGAAACGCAGUUGG	0.436
CUGGAUGGAUAUGAGACAGCCCGCUAUGGGACAGGGGUCUUUGGCCAGAGUGAGUACUUACGAUAUCAAGAGGCCUUGAGUGAGCUGGCCACUGUGGUCAAAGCACGAAU	1.03
AGGACUUGAUCCUUCUCCAGGAAGAAGGUGCUUUCUGCUUACUGACUUAGGCAAUACACCAAGGGCGAGAUUUUAUAUGCACAUUUCUGGAUUUUUUUAUACGGUUUUCA	0.837
UCUCCCUGGCUGCCUCAGGCUUCUCUUACGAAGAGGAAACGCAAAAAAAGAAAAGGAAAAACCCCGUGCUCGCCCCCUUCCUCCUGCCGUCCACUGCGCGGCCUCGUCAG	0.691
AGCAGAGCAGUGCGUUGUUGGGAGAUGGAAAGUCUAUGCGUGGGUACCCUGUCUUCUUGCCUGUGGCCCCCCUCCUUUCUGAAAGUUAGUUCUCUCCGCAUUCUUUAGGA	1.51
CCCACCUCAGCCUCCCGAGUAGCUGGGACUACAGGUGCACACCACCACACCUGGCUAAUUUUUUGUAUUUUUAGUAGAGACAGGGGUUUCUUCCAUGUUGCCCAGGCUGG	0.546
CUGCCUGCAGGGAGCCCUCAGGGUGCCCUCCAGAGUACAGGGAGAAACUAAAGGCAAUAACAGAAGCUGCUCUCAGAGCCUGACUGUGCACAAAACACUAGUGAAGCCUG	0.184
UAACUUCAAAACUUUUAAGAGCAGUGAAGUUGGUCAGGGACAUGUGGCCACUUAUUAUUACCUAAAGAAAACAUUUGUUCCCUGUUCAUUUUAUUUUAGGGGCCAGAUCU	0.286
CUACAGCCUUUCUACAUUCUGACAUGCUAACAGUGGUUUAAGUUUCUAAAGUGUUUACCAGAUGCUGAAGGCAAGGGGAGGGAGCAGAAGCACUUAUGUUUACGGAUAUU	0.553
CCCUAGUCUUAGUAUUGGACGCUAUUUACUCAGCUAUCAAGUAGAGAUCUUCAAGACGGCCUUUAUGAAAAGUUAGUGUGGUGUUAACACUAAAGUAGGUGGGGUGUGGG	0.389
CAGAAUUAUUAUUCAGAUCAAGAAAUCUGUGUCGAUAAAACCUAAUCUCAUAUUGGAGAGUGAAUGUCGUUAAGUAUUUCUGAAAUGUUUCUAAAAAAUGAACAUGAAAA	0.565
ACCACUUUUAUUCAAAAGUACUUUUAACAUACCAAUACAUAGUCUGUCUGAUGGGAGUAUAAAUUGGACAGUAAGGUUUUGUCUUAAUAAAAUGAAAUUUGUUUCUCAUG	0.566

Study 4
Target: Ras GTPase-activating protein-binding protein 1, full length (G3BP1, Homo sapiens, UniProt Q13283)
Chain of UniProt Q13283 (whole entry, looked up): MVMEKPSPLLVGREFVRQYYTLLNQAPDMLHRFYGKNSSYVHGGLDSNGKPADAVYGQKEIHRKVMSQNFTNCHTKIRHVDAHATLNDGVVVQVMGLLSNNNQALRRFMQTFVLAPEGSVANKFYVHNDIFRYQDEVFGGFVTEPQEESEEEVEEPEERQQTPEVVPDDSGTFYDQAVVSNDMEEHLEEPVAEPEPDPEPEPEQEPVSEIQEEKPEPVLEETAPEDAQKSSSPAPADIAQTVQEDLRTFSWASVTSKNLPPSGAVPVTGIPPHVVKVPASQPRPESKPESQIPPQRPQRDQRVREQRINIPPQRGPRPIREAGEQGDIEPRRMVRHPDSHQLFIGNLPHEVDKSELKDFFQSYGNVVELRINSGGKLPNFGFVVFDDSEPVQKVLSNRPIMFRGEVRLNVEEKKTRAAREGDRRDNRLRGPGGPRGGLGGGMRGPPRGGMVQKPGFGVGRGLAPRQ
Method: RNA Bind-n-Seq
Molecule type: RNA
Medium: in vitro
Concentration: 200 nM
Setting: whole 134-nt RNA, ends assumed
Together with: 150 mM LiCl
Relative to: input library
Reading: higher = stronger binding
Library: 7-deaza-guanosine replaces G
All sequences stand within: GGGAGUUCUACAGUCCGACGAUC … UGGAAUUCUCGGGUGUCAAGG
Oligonucleotide	log2 enrichment
CAAGUCCUGUGCUACACAUCGUAUGUACCGAAUCGGGGAGGGGUGGGGAAAGGGGAAAGUAUUAUGUUACGCCGUUCGGAUCUGCACUUC	0.122
ACCAUGCAGGUGGGCAUCUUUGGGAGGUGGGGCAAGGGGGGGAUAGGGAGGGGGGUAACACUUUGGGAACAGGUGGUCCCAGGUCGUUUC	-0.201
UUAUAAUUGAUGAUCAUCCUGAAGUAACAGUAAUUGAAGAUCCCCAGUCAAAUUUGAAUGAUGAUGGUUUUACUGAAGUGGUAUCCAAAA	-2.03
AAGUCCUGUGCUACACAUCGUAUGUACCGAAUCGGGAGGGUUUUUUUGGGAAAGGGAAAGUAUUAUGUUACGCCGUUCGGAUCUGCACUU	0.301
UCAAGUCCUGUGCUACACAUCGUAUGUACCGAAUCGGGAAAGGGAAAGGAAAGGGAAAGUAUUAUGUUACGCCGUUCGGAUCUGCACUUC	-0.376
CCUCAAGUCCUGUGCUACACAUCGUAUGUACCGAAUCGGAAGGAAGGGGAAGGAAAGUAUUAUGUUACGCCGUUCGGAUCUGCACUUCCA	-0.476
CAAGUCCUGUGCUACACAUCGUAUGUACCGAAUCGGUUUGGGUUUGGGGUUUGGGGAAAGUAUUAUGUUACGCCGUUCGGAUCUGCACUU	-1.27
UCCUCAAGUCCUGUGCUACACAUCGUAUGUACCGAAUCGGGAGGGGAGGAGGAAAGUAUUAUGUUACGCCGUUCGGAUCUGCACUUCCAG	0.067
CCUCAAGUCCUGUGCUACACAUCGUAUGUACCGAAUCGGGCGGGGCGGGCGGGAAAGUAUUAUGUUACGCCGUUCGGAUCUGCACUUCCA	-0.632
CUCAAGUCCUGUGCUACACAUCGUAUGUACCGAAUCGGAAAAAAAGGUGGAGGAAAGUAUUAUGUUACGCCGUUCGGAUCUGCACUUCCA	-0.261
GUCCUGUGCUACACAUCGUAUGUACCGAAUCAAACCCCCAAAUUUUUAAAUUUUUAAAAAAGUAUUAUGUUACGCCGUUCGGAUCUGCAC	0.688
